Experimental data from different studies.
Protocols differ between the studies behind these lines. ± gives the spread as reported.

Cc1nc(N)nc2c1C(=O)N[C@@H](c1ccc(F)cc1-c1cccc(OCC[18F])n1)C2 — tissue uptake (ex vivo biodistribution; C57BL/6 mice, bone; intravenous, 1 MBq, 30 min): 6.57 ± 0.42 %ID
CC[C@H](C)[C@H](NC(=O)C[C@H](NC(=O)CN1CCN2CCN(CC1)CC(=O)[O][Al]([18F])[O]C(=O)C2)C(=O)O)C(=O)N[C@H]1CCc2cccc3c2N(C1=O)[C@H](C(=O)NCc1cn[nH]n1)C3 — tissue uptake (C57BL/6J mice, MC-38 tumour, anti-PD-1 treated, liver; 0.5 h): 1.02 ± 0.36 %ID/g
CN(O)C(=O)CCC(=O)NCCCN(CCCCN(CCCNC(=O)CCC(=O)N(C)O)C(=O)CCC(=O)N(C)O)C(=O)CCC(=O)N(C)O.[89Zr] — tissue uptake (gamma counting; healthy Balb/c mice, adrenal; intravenous, 1 h, 89Zr-labelled complex): 0.54 ± 0.21 %ID/g
CC(C)c1noc(C2CCN(c3ncnc(Nc4ccc(OCC[18F])cc4)c3[N+](=O)[O-])CC2)n1 — tissue uptake (ex vivo biodistribution after PET; C57BL/J male mice, blood; 60 min): 1.08 ± 0.02 %ID/g
COc1ccc(Nc2nc(Nc3ccc(OCCOCCOCC[18F])cc3)ncc2Br)cc1 — tissue uptake (ICR mice, S180 tumour-bearing, spleen; intravenous, 370 kBq, 120 min): 0.98 ± 0.07 %ID/g
Cc1cc(C)n(CCN(CCN)CCCCCCNC(=O)[C@@H](N)Cc2c[nH]cn2)n1.[99Tc+].[C-]#[O+].[C-]#[O+].[C-]#[O+] — tissue uptake (BALB/c nude mice, A549 xenograft, muscle; intravenous, 15 min): 0.58 ± 0.1 %IA/g
CC(=O)N([O-])CCCCCNC(=O)CCC(=O)N([O-])CCCCCNC(=O)CCC(=O)N([O-])CCCCCN.[89Zr+4] — tissue uptake (gamma counting; healthy Balb/c mice, plasma; intravenous, 1 h, 89Zr-labelled complex): 0.89 ± 0.23 %ID/g
O=C(NCC1OC2CCC=CCCC2O1)c1ccc([18F])nc1 (centres unmarked) — tissue uptake (healthy female BALB/c nude mice, bladder; intravenous, 7.4 MBq per mouse, 10 min): 3.2 ± 0.7 %ID/g
COc1ccc2c(c1)C(C)(C)C(/C=C/C1=C(Oc3ccc(C(=O)NCCCCOc4cc(CN(Cc5ccccn5)Cc5ccccn5)cc(CN(Cc5ccccn5)Cc5ccccn5)c4)cc3)C(=C/C=C3/N(CCCCS(=O)(=O)[O-])c4ccc(OC)cc4C3(C)C)CCC1)=[N+]2CCCCS(=O)(=O)[O-].O=[N+]([O-])[O-].O=[N+]([O-])[O-].[99Tc+].[C-]#[O+].[C-]#[O+].[C-]#[O+].[Zn+2] — tissue uptake (healthy BALB/c mice, small intestine with contents; 12 h): 1.99 %ID/g
O=C(NCC1OC2CCC=CCCC2O1)c1ccc(COCCOCCOCC[18F])cc1 (centres unmarked) — tissue uptake (healthy female BALB/c nude mice, stomach; intravenous, 7.4 MBq per mouse, 30 min): 2.8 ± 0.4 %ID/g
COc1ccc(Nc2nc(Nc3ccc(OCCOCC[18F])cc3)ncc2Br)cc1 — tissue uptake (ICR mice, S180 tumour, spleen; intravenous, 30 min, with: PF-562271 33 mg/kg oral 1 h before): 2.53 ± 0.14 %ID/g

For quick reference, copied from above:
CC(=O)N([O-])CCCCCNC(=O)CCC(=O)N([O-])CCCCCNC(=O)CCC(=O)N([O-])CCCCCN.[89Zr+4] — tissue uptake (gamma counting; healthy Balb/c mice, plasma; intravenous, 1 h, 89Zr-labelled complex): 0.89 ± 0.23 %ID/g
